Experimental data gathered from unrelated publications.
Parts stem from different laboratories: compare values within a part only.

Series 1
Target: Histone acetyltransferase KAT6A, winged helix 2, GST fusion (KAT6A, Homo sapiens, UniProt Q92794, residues 85-181)
Method: protein binding microarray
Molecule type: double-stranded DNA, one strand shown
Matrix: in vitro
Concentration: not given
Notes: 8-mer, flanks averaged, mean of 2 arrays, mostly near background
Relative to: not given
Direction: higher = stronger binding
Residues (chain): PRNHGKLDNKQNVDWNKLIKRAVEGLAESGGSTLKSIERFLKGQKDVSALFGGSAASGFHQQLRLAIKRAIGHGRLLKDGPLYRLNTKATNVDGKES
For `ACCAAAAG`, the E-score was 0.0478.
`GCCATATA` gave an E-score of 0.0411.
`CTACACCC` has an E-score of 0.023.
With `CTCACCAG` the E-score was 0.105.
`AGTTCGAT` has an E-score of -0.0537.
For `ACATCGCG`, the E-score was -0.00726.
`CGGACATA` has an E-score of -0.0318.
With `GGGGCTCA` the E-score was -0.149.
`AGTTCTCA` has an E-score of -0.0795.
`AGGGGCAG` gave an E-score of 0.147.
With `CTCTATGC` the E-score was -0.0509.
`AGGGCATC` has an E-score of -0.0131.
With `GGGTTGCA` the E-score was -0.0283.
The E-score of `TCTACTAA` is reported as 0.062.
With `CCAAGCGG` the E-score was 0.043.
`ATCCCGCG` has an E-score of 0.14.
The E-score of `TTCACGAA` is reported as 0.0284.
For `ACAGTTGG`, the E-score was -0.0341.
`ACAAAAGT` has an E-score of 0.00609.
For `GGTCCAGA`, the E-score was -0.0767.
The E-score of `GAGACGCC` is reported as 0.0309.

Series 2
Target: Sal-like protein 4, full length isoform B (SALL4, Homo sapiens, UniProt Q9UJQ4-2, residues 1-616)
Method: universal PBM
Molecule type: double-stranded DNA, one strand shown
Matrix: in vitro
Concentration: not given
Notes: 8-mer, flanks averaged, mean of replicates
Direction: higher = stronger binding
With `GAACTGCC` the E-score was -0.221.
For `CGTCGATC`, the E-score was 0.0265.
For `CACCCAGC`, the E-score was -0.332.
The E-score of `CGGGCATC` is reported as -0.323.
The E-score of `CTAACTTC` is reported as 0.066.
The E-score of `GTCTGAAA` is reported as -0.0828.
`AGGATTCA` has an E-score of 0.134.
For `AATTAGAT`, the E-score was 0.267.
The E-score of `GCAAGACC` is reported as -0.129.
The E-score of `CAGGAGAC` is reported as -0.176.
The E-score of `GAAGGCGC` is reported as -0.243.
With `CTAGAGTA` the E-score was -0.0232.
The E-score of `CGCACGAA` is reported as -0.0743.
`GCGGGCAA` gave an E-score of -0.22.
With `GGCATCAC` the E-score was -0.279.
With `GGGACACA` the E-score was -0.168.
`AAATTGTG` gave an E-score of 0.223.
With `AAATCGGG` the E-score was 0.0334.
`GTTTGCTA` has an E-score of 0.00062.
`GTCGCACA` has an E-score of -0.118.
`ATTGCTCG` has an E-score of -0.0206.
The E-score of `AAAAATTG` is reported as 0.424.
`GACCCCGC` gave an E-score of -0.299.
`ATCCCCTG` has an E-score of -0.219.
`GTGGGCTA` gave an E-score of -0.0463.

Series 3
Target: RNA binding protein fox-1 homolog 2, RRM domain, GST-SBP tag (RBFOX2, Homo sapiens, UniProt O43251-10, residues 100-194)
Method: RNA Bind-n-Seq
Molecule type: RNA
Matrix: in vitro
Concentration: 365 nM
Notes: natural RNA segment, single round, ends assumed
Relative to: no-protein control
Direction: higher = stronger binding
Under “RBNS enrichment (R)”, `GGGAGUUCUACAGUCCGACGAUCUUCCUGCCUCCUCCCAAGGGAAGGAAGUGAGAGCAGUGGUCCUCUGGUUCAUUUAGCUGUUUGGCAGAAUUCUUACACUAUCCUCAGCCUCAGUUAUGAAAUGACCAAGAUGGAAUUCUCGGGUGCCAA` is recorded as 0.367.
Under “RBNS enrichment (R)”, `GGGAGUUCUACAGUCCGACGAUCAAACCUAUAGAAGUUAGCAUUACUGCUAAAAUCCCAGAUGUUGUAGGACUGUACUUUUGUAGAGUUUAGACAGAGCAUCAAUCCCUUCUCCCCGCGAGUGCAGUCGGAUGUGGAAUUCUCGGGUGCCAA` is recorded as 0.506.
`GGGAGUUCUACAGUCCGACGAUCUUUGUCUUUUUCCUUUAUUCUUUUUGUAAAUAUAUAUAUAAUGAGUUUCAUUAAAAUAGAUUAUCCCACACGACUUGUACUGCUAGUUAUUCUUCCCAGGCCACCUUGUUUGGAAUUCUCGGGUGCCAA`: “RBNS enrichment (R)” 0.923.
`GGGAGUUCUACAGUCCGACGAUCAACUUGUUCACAUUGUUAAUUUCUGUCCAGAGACCUGAAACUGCUUAAGUAUGGGAACAGACUGAAAUGGUGUUUCAACCUGCAAGAGACAGAAGCAUAGACAAGUAUAUUGGAAUUCUCGGGUGCCAA`: “RBNS enrichment (R)” 0.415.
Under “RBNS enrichment (R)”, `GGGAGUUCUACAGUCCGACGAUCCAAAGAUCCCACUUAGGAAAGAAGCCCUUUCAAUAGCCAGUAACCAAACUCUCUUUCCCCAUUUCUAUCUCCCAGCCCAGUCACAAAAAUACUCAGCUCCAUCAAGAGGAUGGAAUUCUCGGGUGCCAA` is recorded as 0.849.
`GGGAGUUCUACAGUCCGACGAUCAAUGCCGUCCAGUCUCUCCCAGAUGAUUUUGUAUUUUUAUUUGGGGAGAGGGGGCUGGUUUUUUUUUUUUUUUUAAUUGUCUUCAAAUCAGGAAAGAACCAUGAAAGACUUGGAAUUCUCGGGUGCCAA` — result for “RBNS enrichment (R)”: 0.616.
`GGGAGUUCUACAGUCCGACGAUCAACAGGAAGCAGCUGGGCUUUUAAGCAGAUCUGUCAGAAACCACAAGCUAUGCCAAGGUCAGAGCCACGGGCAUCUAGAAGGCAUCCACUCUGCUCAAGAGACGGAUGCAUGGAAUUCUCGGGUGCCAA`: “RBNS enrichment (R)” 0.363.
`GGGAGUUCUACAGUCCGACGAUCAAAUCCCCAUAAAUAUCCAUCCCUUCCUAGAUGGCAUUAACUUUCAUUUUAGAUUUUAGGUGACUCAUAAUUCCCAUUCACUUAGCCUAUCAGAAAAGUCAUUGGCAGACUGGAAUUCUCGGGUGCCAA` — result for “RBNS enrichment (R)”: 0.536.
Under “RBNS enrichment (R)”, `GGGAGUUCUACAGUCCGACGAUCGUAUAAGGCAUCCUAACUUACAAGAGUAACUUUCCAUGGACAUUUAACAUCCUUCCAAUUUUAUUCACAUAUAAUGGGAAAUUUUGAAUUGCCAGUUUGAAGACUGUUCUUGGAAUUCUCGGGUGCCAA` is recorded as 0.468.

Series 4
Target: RING finger protein unkempt homolog, zinc fingers 1-6, SBP tag (UNK, Homo sapiens, UniProt Q9C0B0, residues 30-357)
UniProt Q9C0B0, sequence (30-357, looked up): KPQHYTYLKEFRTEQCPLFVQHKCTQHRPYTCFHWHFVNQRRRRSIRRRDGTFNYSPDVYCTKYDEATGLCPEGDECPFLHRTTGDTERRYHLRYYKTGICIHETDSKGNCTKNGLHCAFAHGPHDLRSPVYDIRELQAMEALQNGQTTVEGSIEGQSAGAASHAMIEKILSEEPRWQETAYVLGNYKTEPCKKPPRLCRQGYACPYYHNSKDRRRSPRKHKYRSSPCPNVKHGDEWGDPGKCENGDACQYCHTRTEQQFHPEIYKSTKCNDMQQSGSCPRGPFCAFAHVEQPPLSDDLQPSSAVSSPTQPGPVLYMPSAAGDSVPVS
Method: RNA Bind-n-Seq
Molecule type: RNA
Matrix: in vitro
Concentration: 100 nM
Notes: RNA with constant flanks, vertebrate orthologous sites, ends assumed
Relative to: input RNA pool
Direction: higher = stronger binding
With `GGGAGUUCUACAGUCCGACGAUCGUGUUGGUGCAGAGCGCUCUGUACCAGUGCUCAUCAUCCCUUCUUCAUACCAACUGUCCCUAGUUAUAGGAAUUUAAUAUUUUUAAAAGUUUUACAUUGCUGUAUAUUCAAAGAUUUGUUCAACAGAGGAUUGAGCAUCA` the bound/input enrichment was 0.91 ratio.
`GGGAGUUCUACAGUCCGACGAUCUUCAGGCACAACUGACUGGUUCACAGCAUUCCUUACAUAGCUAUCUAUCAAAUGCAAGUGUAGUUAAUUUUCAGGAAACAAGCAGGCAGUCAUCUUUAUCCUGUAGCCCAAUUGGAGAUUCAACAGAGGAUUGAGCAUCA` has a bound/input enrichment of 1.58 ratio.
`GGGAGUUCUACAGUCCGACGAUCCCACGUUAAACAACUCAGGGCAGUAUUCCCGAUAUCCUUAUAGUAACCUUAAUCAGGGAUUAGUUAAUAAUACAGGGAUGAAUCAGAAUUUAGGCCUUACAAACAACACUCCAAUGACUCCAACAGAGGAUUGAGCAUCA` gave a bound/input enrichment of 1.97 ratio.
For `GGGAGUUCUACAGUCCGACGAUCGCAAACCCCAUCACUGUGAUAUUUAAAAUAUGCACAGUCUUAAUUCUUUCCAAAUGAUCCUAGUAUUUUUCUAGCUCUAUCUUUGUAUCUCAUACUGUUAUUUAUCAGAAUUUUUCCCUGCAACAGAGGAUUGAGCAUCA`, the bound/input enrichment was 1.74 ratio.
For `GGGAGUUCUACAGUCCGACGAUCCAUGUCCUUUUUACUGUGGUAUUCAGAACAGCCACAGUACUCACUUUUUCCAAAUGAUUCUAGUAAUUGCCUAGAAAUAUCUUUUUCUUACCUGUUAUUUAUCAAUUUUUCCCAGUAUUUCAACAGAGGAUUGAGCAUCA`, the bound/input enrichment was 1.48 ratio.
With `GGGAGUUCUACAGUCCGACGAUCACAGGAGCAGUACAGGCUGUUUGAUCUUUGAAGAAAUGAGCUUUGCUUUUUAUAUUUAAAUAGGAUACUUUUAUAUGAUGGGUGCUUUGAGUGUGAAUGCAGCAGUCUGUCCAUUUCAGACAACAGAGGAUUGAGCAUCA` the bound/input enrichment was 1.09 ratio.
`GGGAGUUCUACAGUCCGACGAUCUGUGUUGGGCAGAGUGCUCUGUACCAGUGCUCGUCAUCCCUUCUUCAUACCAACUGUCUCUAGUUAAUAGGAAUUUAAUAUUUUGAAAAGUUUUACAUUGCUGUAUAUUCAAAGAUUUGUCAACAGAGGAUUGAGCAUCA` gave a bound/input enrichment of 0.363 ratio.
The bound/input enrichment of `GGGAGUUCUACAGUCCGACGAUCGUCCUUUCAUACUGUCCCCAGCCAGGGUCAAGGACCAGACGUUUCACUGAGGACCUGCAUUUCAAACAGUUUUUAAAUUGUACAGGAAGAGAUGCGACAAAACAGCAUCUCAGCGUCGAGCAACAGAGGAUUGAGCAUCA` is reported as 0.362 ratio.
`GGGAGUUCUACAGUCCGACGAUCUUGAACCUCCUGAACUUGCUUUCAAAUUGUGGCUGUUUCAGAAACUGGUUUUAUUUUCUUUAGGAUUUGCCCUGUUUCUUAUCUUCUCCUCCACGUUUCCAACGUUUGACUCAUGGAUUUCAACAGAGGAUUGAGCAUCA` has a bound/input enrichment of 0.413 ratio.
For `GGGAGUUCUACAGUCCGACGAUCUAUCUUUAGGAUGAAGCUCUUACACCAAGUGUCACGAGUCUGGAGAACAGAUGGGUUGAGUAGUUGUUCUUAUAAAUUAGUAUCCGUGGAACACAAUCCUUUGUAUGUCAACAUCACAGUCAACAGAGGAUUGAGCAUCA`, the bound/input enrichment was 0.804 ratio.
With `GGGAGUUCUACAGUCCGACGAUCCUCUAUGGGCCUCGCAGAGUUGAAAUAAUGGAAGAGGAAAGUGAAUAGUAAUCUUCAUUUUAGUAUUUAUGCUUAGGUGUGAAAUAAAUGUUAUUUGUUGAUCACUUCUAUAAUCCAGAGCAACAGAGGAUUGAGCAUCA` the bound/input enrichment was 0.4 ratio.

Repeated from above (series 2):
For `AATTAGAT`, the E-score was 0.267.
`GTTTGCTA` has an E-score of 0.00062.
With `GAACTGCC` the E-score was -0.221.
The E-score of `CAGGAGAC` is reported as -0.176.
The E-score of `CGGGCATC` is reported as -0.323.
With `CTAGAGTA` the E-score was -0.0232.
